Published values collected from several papers.
Every numbered part comes from another study and shows a few of its results, in no order.

Block 1 — technique: protein binding microarray; form: double-stranded DNA, one strand shown; sample: in vitro; concentration: not given; baseline: not given; reading: higher = stronger binding
Target: Histone acetyltransferase KAT6A, winged helix 2, GST fusion (KAT6A, Homo sapiens, UniProt Q92794, residues 85-181)
Notes: 8-mer, flanks averaged, mean of 2 arrays, mostly near background
Target sequence (chain): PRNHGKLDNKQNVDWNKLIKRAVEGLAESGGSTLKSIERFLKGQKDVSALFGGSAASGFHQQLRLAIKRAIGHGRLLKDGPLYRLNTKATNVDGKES
With `ACCTTCAA` the E-score was 0.0291.
`AAATCTCT` has an E-score of -0.0705.
With `CCGAAGAA` the E-score was 0.0731.
`GAGACGCC` gave an E-score of 0.0309.
With `CCACGTAC` the E-score was -0.279.
`CGTCGTAA` has an E-score of -0.239.
For `AATAAAGC`, the E-score was 0.0189.
For `CAATAGAG`, the E-score was -0.105.

Block 2 — target: UBE2E2 UBC core domain (UniProt Q96LR5); technique: yeast two-hybrid; sample: yeast; notes: mostly zero background; baseline: not given; reading: higher = stronger interaction
UniProt Q96LR5, sequence (whole entry, looked up): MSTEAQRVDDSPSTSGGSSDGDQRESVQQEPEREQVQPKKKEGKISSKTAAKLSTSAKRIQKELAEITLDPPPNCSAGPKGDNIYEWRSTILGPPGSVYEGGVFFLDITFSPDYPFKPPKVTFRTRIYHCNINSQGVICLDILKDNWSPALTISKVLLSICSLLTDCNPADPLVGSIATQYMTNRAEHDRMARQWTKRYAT
B1: SHPRH RING domain (UniProt Q149N8); chain KTSGGVNPEPCPICARQLGKQWAVLTCGHCFCNECISIIIEQYSVGSHRSSIKCAICRQTTSHKEISY
B2: TRIM32 RING domain (UniProt Q13049); chain NLDALREVLECPICMESFTEEQLRPKLLHCGHTICRQCLEKLLASSINGVRCPFCSKITRITSLTQ
B3: RNF10 RING domain (UniProt Q8N5U6); chain VRICSHEVPSCPICLYPPTAAKITRCGHIFCWACILHYLSLSEKTWSKCPICYSSVHKKDLKS
B4: TRIM28 RING domain (UniProt Q13263); chain GAEALELLEHCGVCRERLRPEREPRLLPCLHSACSACLGPAAPAAANSSGDGGAAGDGTVVDCPVCKQQCFSKDIVE
B5: ARIH1 RING domain (UniProt Q9Y4X5); chain NTRSSAQDMPCQICYLNYPNSYFTGLECGHKFCMQCWSEYLTTKIMEEGMGQTISCPAHGCDILVDDNTVM
B6: CBLL1 RING domain (UniProt Q75N03); chain GEKDDTPVHFCDKCGLPIKIYGRMIPCKHVFCYDCAILHEKKGDKMCPGCSDPVQRIEQCT
For `B1 (SHPRH RING domain)`, “lacZ reporter activity” read 0.
For `B2 (TRIM32 RING domain)`, “lacZ reporter activity” read 0.
`EDVLSKDAGECAICLEELQQGDTIARLPCLCIYHKGCIDEWFEVNRSCPEHPSD (ZNRF2 RING domain (UniProt Q8NHG8))` — result for “lacZ reporter activity”: 0.
For `B3 (RNF10 RING domain)`, “lacZ reporter activity” read 0.
`B4 (TRIM28 RING domain)`: “lacZ reporter activity” 0.
For `B5 (ARIH1 RING domain)`, “lacZ reporter activity” read 0.
For `GSEEEEIPFRCFICRQAFQNPVVTKCRHYFCESCALEHFRATPRCYICDQPTGGIFNPA (RNF113B RING domain (UniProt Q8IZP6))`, “lacZ reporter activity” read 0.
For `B6 (CBLL1 RING domain)`, “lacZ reporter activity” read 0.

Block 3 — technique: RNA Bind-n-Seq; form: RNA; sample: in vitro; concentration: not given; notes: 4-mer, random 30-nt RNA, single round; together with: RocA, ADP, phosphate; baseline: input library; reading: higher = stronger binding
Target: ATP-dependent RNA helicase DDX3X, helicase core (DDX3X, Homo sapiens, UniProt O00571, residues 132-607)
UniProt O00571, sequence (132-607, looked up): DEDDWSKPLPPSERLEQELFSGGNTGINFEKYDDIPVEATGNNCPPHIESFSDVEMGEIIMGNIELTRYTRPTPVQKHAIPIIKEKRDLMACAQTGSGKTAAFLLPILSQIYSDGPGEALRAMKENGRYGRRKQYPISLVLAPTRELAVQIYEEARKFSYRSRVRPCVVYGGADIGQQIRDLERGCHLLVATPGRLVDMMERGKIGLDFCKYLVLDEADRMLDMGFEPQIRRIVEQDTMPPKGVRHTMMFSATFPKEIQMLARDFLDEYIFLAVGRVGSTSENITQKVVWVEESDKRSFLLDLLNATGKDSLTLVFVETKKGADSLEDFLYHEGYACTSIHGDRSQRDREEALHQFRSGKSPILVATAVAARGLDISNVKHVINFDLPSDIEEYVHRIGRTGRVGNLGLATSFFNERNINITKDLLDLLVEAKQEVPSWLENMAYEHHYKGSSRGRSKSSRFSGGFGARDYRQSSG
`UCUU` gave a 4-mer enrichment of 0.778 fold.
`GUAA` gave a 4-mer enrichment of 1.06 fold.
The 4-mer enrichment of `UCGU` is reported as 1.01 fold.
`CAUA` gave a 4-mer enrichment of 0.743 fold.
`GCAU` has a 4-mer enrichment of 0.764 fold.
With `UGAC` the 4-mer enrichment was 0.717 fold.
With `UGGG` the 4-mer enrichment was 1.3 fold.
The 4-mer enrichment of `CGAG` is reported as 1.83 fold.

Single results of other studies
Cc1cc(Nc2nccc(C)n2)cc(-c2cnc([C@@]3(O)CC[C@H](C(=O)O)C(C)(C)C3)s2)c1 has a viability of 104% (normal-adjacent organoid sample E; CellTiter-Glo; 0.1 µM, replicate mean; baseline: DMSO).

Excerpt of the above (block 3):
With `UGAC` the 4-mer enrichment was 0.717 fold.
`UCUU` gave a 4-mer enrichment of 0.778 fold.
